# Measured values pooled from the literature.
# Numbered parts are unrelated; each lists some results of a single study.

# Block 1
# Target: Sal-like protein 4, full length isoform A (SALL4, Homo sapiens, UniProt Q9UJQ4, residues 1-1053)
# UniProt Q9UJQ4, sequence (whole entry, looked up): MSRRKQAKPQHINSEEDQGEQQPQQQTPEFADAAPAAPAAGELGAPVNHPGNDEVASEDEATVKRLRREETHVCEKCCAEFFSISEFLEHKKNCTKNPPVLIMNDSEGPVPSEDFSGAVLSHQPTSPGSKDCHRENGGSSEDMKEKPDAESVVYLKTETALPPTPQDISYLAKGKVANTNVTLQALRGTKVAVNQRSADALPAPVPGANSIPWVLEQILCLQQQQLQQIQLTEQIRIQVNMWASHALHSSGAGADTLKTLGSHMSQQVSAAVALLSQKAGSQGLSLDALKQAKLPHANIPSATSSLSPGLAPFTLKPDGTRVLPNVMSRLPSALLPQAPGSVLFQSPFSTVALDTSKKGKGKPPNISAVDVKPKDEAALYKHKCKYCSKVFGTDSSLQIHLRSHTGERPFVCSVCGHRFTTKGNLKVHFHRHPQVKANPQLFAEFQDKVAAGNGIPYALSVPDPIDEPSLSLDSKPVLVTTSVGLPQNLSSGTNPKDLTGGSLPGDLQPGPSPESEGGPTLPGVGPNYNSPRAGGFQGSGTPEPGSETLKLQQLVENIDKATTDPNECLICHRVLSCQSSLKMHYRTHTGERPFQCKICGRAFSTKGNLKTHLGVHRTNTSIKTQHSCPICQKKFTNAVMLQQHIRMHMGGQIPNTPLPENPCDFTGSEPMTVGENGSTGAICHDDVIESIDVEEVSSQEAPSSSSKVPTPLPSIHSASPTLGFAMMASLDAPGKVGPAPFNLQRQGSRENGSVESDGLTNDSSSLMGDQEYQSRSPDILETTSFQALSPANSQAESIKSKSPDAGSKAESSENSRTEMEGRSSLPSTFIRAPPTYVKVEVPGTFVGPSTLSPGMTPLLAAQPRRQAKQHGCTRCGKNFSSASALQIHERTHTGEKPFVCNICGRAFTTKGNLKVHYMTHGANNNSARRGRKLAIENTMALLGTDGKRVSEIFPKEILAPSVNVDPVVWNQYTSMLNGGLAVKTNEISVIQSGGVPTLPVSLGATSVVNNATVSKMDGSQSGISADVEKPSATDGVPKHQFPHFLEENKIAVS
# Technique: universal PBM
# Molecule type: double-stranded DNA, one strand shown
# Medium: in vitro
# Tested at: 600 nM
# Notes: 8-mer, flanks averaged, mean of replicates
# Direction: higher = stronger binding
Sequence,E-score
CCTCATCA,0.0735
GACTTGAC,-0.0582
CTTGATCC,-0.0919
GCGAAAGA,-0.0449
CCGCACGC,-0.237
CATACATC,0.189
GACACCAC,-0.286
AAAAGGAA,0.173
GCATCTCA,0.108
ACCCTCGT,-0.221
CGCGCACG,-0.26
TAATCGGA,0.104
GGTAATAA,0.351
ATAGTCAC,0.13
GTGGCGTA,-0.0975
AACTTCCC,-0.0744
ACCTTACT,0.229
GCTGTAAC,-0.0474
GGGGGACA,-0.317

# Block 2
# Target: Ras GTPase-activating protein-binding protein 1, RRM domain (G3BP1, Homo sapiens, UniProt Q13283)
# UniProt Q13283, sequence (whole entry, looked up): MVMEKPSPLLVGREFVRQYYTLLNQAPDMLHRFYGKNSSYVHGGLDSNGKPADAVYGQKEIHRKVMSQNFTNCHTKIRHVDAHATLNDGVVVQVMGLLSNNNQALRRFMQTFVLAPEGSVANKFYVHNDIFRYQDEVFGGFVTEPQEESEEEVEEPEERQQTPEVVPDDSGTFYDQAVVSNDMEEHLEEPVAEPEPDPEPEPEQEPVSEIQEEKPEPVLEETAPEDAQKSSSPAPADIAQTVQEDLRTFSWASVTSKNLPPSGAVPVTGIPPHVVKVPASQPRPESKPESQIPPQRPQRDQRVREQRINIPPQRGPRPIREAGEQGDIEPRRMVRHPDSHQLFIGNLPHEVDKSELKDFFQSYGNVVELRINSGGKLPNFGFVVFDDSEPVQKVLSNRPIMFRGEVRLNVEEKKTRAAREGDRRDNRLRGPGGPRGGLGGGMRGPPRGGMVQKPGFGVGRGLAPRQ
# Technique: RNA Bind-n-Seq
# Molecule type: RNA
# Medium: in vitro
# Tested at: 1 µM
# Notes: whole 134-nt RNA, ends assumed
# With: 150 mM KCl
# Baseline: input library
# Direction: higher = stronger binding
# Constant ends, left off below: GGGAGUUCUACAGUCCGACGAUC … UGGAAUUCUCGGGUGUCAAGG
Sequence,log2 enrichment
UGGGAGGUGGAUUUUGUUUAUUUUUUUAGCUCAUUUCCAGGGGUGGGAAUUUUUUUUUAAUAUGUGUCAUGAACAAAGUUGUUUUUGAAA,1.19
CCUGUGCUACACAUCGUAUGUACCGAAUCGGUUUUUUUGGGUUUUUUUGGGUUUUUUUGGGAAAGUAUUAUGUUACGCCGUUCGGAUCUG,-0.371
UGUAUCCCUGUUUCUUUUCUCCCUACAGAAACAUAUGAGGAUUUUGAUACCAGGAUACUUGAGGUAGGCAUGCAGAAUUAAAUACCUGGU,-0.166
UAACUUUAGAGGAGGAUCUGAUGGAUAUGGCAGUGGACGUGGAUUUGGGGAUGGCUAUAAUGUGUAUGGAGGAGGACCUGGAGGUGGCAA,-0.395
AAGUCCUGUGCUACACAUCGUAUGUACCGAAUCGGGGAAAGGGGUUUGGGGUGGGGAAAGUAUUAUGUUACGCCGUUCGGAUCUGCACUU,1.36
UCAAGUCCUGUGCUACACAUCGUAUGUACCGAAUCGGGGUUGGUUGGGGUUGGGGAAAGUAUUAUGUUACGCCGUUCGGAUCUGCACUUC,0.195
ACCAUGCAGGUGCGCAUCUUUGGGAAGUGGGGCAAGGGGGGGAUAGGGAGGGGGGUAACACUUUGGGAACAGGUGGUCCCAGGUCGUUUC,-0.465
CCUGUGCUACACAUCGUAUGUACCGAAUCGGGGCCCCCCGGGGCCCCCCGGGGCCCCCCGGAAAGUAUUAUGUUACGCCGUUCGGAUCUG,-0.71
CAAGUCCUGUGCUACACAUCGUAUGUACCGAAUCGGCCCCGGGGCCCCGGCCCCGGAAAGUAUUAUGUUACGCCGUUCGGAUCUGCACUU,-0.599
UCCGCACACCCGGCCUGUCACCCUGCUUUCCCUGCCUCUACUUGACUUGGAAUUGGCUGAAGACUACACAGGAAUGCAUCGUUCCCACUC,0.0388
UGGCCCUGGUGGCAUGCGGGGAGGAAGAGGGGGCCUCAUGGAUCGUGGUGGUCCCGGUGGAAUGUUCAGAGGUGGCCGUGGUGGAGACAG,0.908
UCCUGUGCUACACAUCGUAUGUACCGAAUCAAAUUUUUUUAAACCCAAAUUUUUUUAAAAAAGUAUUAUGUUACGCCGUUCGGAUCUGCA,-0.595
UCCUGUGCUACACAUCGUAUGUACCGAAUCGGGGUUUUUUUGGGGUGGGGUUUUUGGGGAAAGUAUUAUGUUACGCCGUUCGGAUCUGCA,0.552
CCUCAAGUCCUGUGCUACACAUCGUAUGUACCGAAUCGGUGGAGGAAAAAGGAAAGUAUUAUGUUACGCCGUUCGGAUCUGCACUUCCAG,-0.137

# Block 3
# Target: TAR DNA-binding protein 43, full length, His tag (TARDBP, Homo sapiens, UniProt Q13148, residues 1-414)
# Technique: RNA Bind-n-Seq
# Molecule type: RNA
# Medium: in vitro
# Tested at: 20 nM
# Notes: 6-mer, flanks averaged, single round
# With: 150 mM LiCl
# Baseline: input library
# Direction: higher = stronger binding
Sequence,6-mer enrichment (R)
AUGGGA,1.11
AAUUGU,1.04
UGUUAU,1.25
GUCGUC,1.03
ACGCUG,0.862
GUCGCC,0.972
UGAAAC,0.84
AACCCC,1.03
CACAAA,0.859
GGGAUG,1.26
CGAGGA,0.959
AAUGCA,0.913
GAGCUU,0.913
AGACGG,0.934
UAAGAA,1.04
UGCGAA,0.912

# Block 4
# Target: Interferon regulatory factor 5, full length, phosphomimetic (IRF5, Homo sapiens, UniProt Q13568-2, residues 1-514, S451D/S453D/S456D/S462D)
# Technique: protein-binding microarray
# Molecule type: double-stranded DNA, one strand shown
# Medium: in vitro
# Tested at: 940 nM top
# Notes: 60-bp whole probe
# With: salmon DNA 0.4 mg/ml
# Baseline: random background probes
# Direction: higher = stronger binding
# Constant ends, left off below: GCCTAGCAC … GTCTTGATTCGCTTGACGCTGCTG
Sequence,fitted relative affinity [z-score]
TTAGATATCGGGACTTGATTAGTGCTA,-0.0511
TTAGGTATCGGGACTTGGTTAGTGCTA,3.83
TCAGAACTGAGTTTCGATTAGTGCTAG,7.76
TCACATTTCACAGTTAAACTGTGCTAG,0.589
TCAGATCTCCGAGATGCCACTGTGCTA,-0.192
TTAGAACTGGGGTTCCGATTAGTGCTA,0.556
GACGGTATCGGTATCGGCACGTGCTAG,9.02
CTGGTTTTTACTTTCTGAATGTGCTAG,1.69
CTGTTTCTGTGTCACAGAGGGTGCTAG,2.66
TCAAAGATTTTTATCAAACTGTGCTAG,0.0269
CCCAATTGTCTTTTCACTTTGTGCTAG,1.53
GACGGTATCGGTTTCGAGACGTGCTAG,9.76
TCACTTTCCAACTCTGTTACTGTGCTA,0.936
TTAGGTATTGGGTATCGGTTAGTGCTA,3.67
GGGCAGGAAACGGAGGACACGTGCTAG,-0.328
TTAGGTATCGGCTTTCGGTTAGTGCTA,6.22
TTAGGTATCGTTATCGGTTAGTGCTAG,5.73
GACGATATCAGTCTCGTGACGTGCTAG,-0.0591
GACGATTTCAGTTCCGGGACGTGCTAG,0.953
CTGTTTCTACTGTCTGTTTCCGTGCTA,1.92
TTTCCCATGAGTCTCAATATGTGCTAG,1.67
TCAATTTTCTAAATGCCACTGTGCTAG,0.116
GACGGACTGGGTCTCGGGAAGTGCTAG,-0.23
GACGATCTCAGTCTCGAGGCGTGCTAG,0.743
TTAGGTTTCGGTTTCGATTAGTGCTAG,16.5

# Block 5
# Target: RNA binding protein fox-1 homolog 2, RRM domain, GST-SBP tag (RBFOX2, Homo sapiens, UniProt O43251-10, residues 100-194)
# Technique: RNA Bind-n-Seq
# Molecule type: RNA
# Medium: in vitro
# Tested at: 365 nM
# Notes: natural RNA segment, single round, ends assumed
# Baseline: no-protein control
# Direction: higher = stronger binding
# Constant ends, left off below: GGGAGUUCUACAGUCCGACGAUC … UGGAAUUCUCGGGUGCCAA
Sequence,RBNS enrichment (R)
UCUAACUGAUCACAUACGCAGGAGUGGCCAUGGUCGAGAGGGCCUGACACACUUGGCCCUCGAUGUAUGAAAUCUUGACCAGAAUUAAAAGCAAAGACGUCUCUCCUGUC,0.538
CAAGAAAAGUGCCAGUUUUACCCAUGCCAUAUAAUUCAGCUCUUUUGAGUUAUGUGGGGCCAGCAGAAGUCUCAAUCCUUAUAGGCUUGAUGGUGAGAGCAGCGGGAGGU,0.552
UUCAGUUUUUAUAGUUGUGUUGGUUUUCUUAAUUGAUUUUUGUUAAUAAUACCUUAAUCCAGGGUAGGGAGACGUUGCACAAUGCAUUGCAUUAUAUAUACCUAUCACUG,0.789
CCACGGCCCACCCUGGUCAGGCUGCCUCCUUAAUCGAGAAAACUACCUGGUGAUGCAAUCUUUUUUUUUUUUAAUUUAAUUUAAUUUUAAAAUAAAUGCUGCAUUGGUAA,0.644
AAGAACAUAUUUAUAAUAAAAUCACUGUAGAAGGAUUUUUAAGAUGUUAGUGAAUUCUGUUUCUUUUCAUUCUCGGAAAUGGCAGGAAGCAGCUCCAGUCUCUGAUUUCC,0.458
GUAGUGUCCUGCCUAUUCCUUUCUGGCUACCUAAACGGUUCUCACUCAGGUCCUCUGGAAUAUUCUCUGCACUCUGUCCAUCUUCUGCUGCAGCUCUGCAUGCAAUUUAG,0.463
CUCUGAAUUAAGGAUUUCAGGUUUAACUGGUAGUGAAAGACUGCACCUAGCAUCUUCGGGAAGAAAUGAUUCCAGUCUAUUGGCUGAUACUACAUUAGUUUCCCUUUCUG,0.845
AAACUGGCUCAGAUGUUUAUAAGUCAAGAGGAAAGCGGCACAGAGAACAGCACAGUGAAGAGUGAAAUGGAGAAAACUCUCACGGUGAAGCAGCUGUUGGAACUCCUGGU,0.638
UCUCUCACCUAAAUAGUUCCACUUUCUGCAUUAGGAGAAAACUGCUCCCCUCCCCAAGUAUUUUAGUCCAAGUUUCCUUUAGUUUGAGAACAUAGAUUGUAUCACCCAUA,1.2
CCCCCCAAAAUUCAUGUGUUGGAGCCUUAACCCUCAAUGUGAUGGUAUUUGAGAUGGGGCCUUUGGUAAGGGAAGUUUAGAUGAGGUCACGAGGGUAGGACCCUCAUGAU,0.762
UGUGCAGCCUGGGCUGCUGUCAUUGCCCUCCAGUAAGGGCUCAGGGUUUUGCUUUUAGUCUCCCCUUCCUUCUGCCUUGGGGGCGGUACUCUGUGGAGCUGCUUAGGCCU,0.382
GCCUCAGUUAUGAAAUGACCAAGAAAAGUAUCUCAUAAAUAUUGUAUAUUACGUGAAAUGUGAAGUUAAAACUGAAGCUAAGAGUGUUUGUGGUUGUAAUUGUUUUUUUU,0.859

# A few entries again (block 1):
Sequence,E-score
GCGAAAGA,-0.0449
CCGCACGC,-0.237
CATACATC,0.189
GACACCAC,-0.286
AAAAGGAA,0.173
GCATCTCA,0.108
